Assay results from different studies.
Compare with care: the assays were run in different laboratories. ± marks the error that the study gave. Values after ≈ are worked out from the molar mass of the structure shown.
UCHL1: Ubiquitin carboxyl-terminal hydrolase isozyme L1 (UCHL1, Homo sapiens, UniProt P09936)
Chain of UniProt P09936 (whole entry, looked up): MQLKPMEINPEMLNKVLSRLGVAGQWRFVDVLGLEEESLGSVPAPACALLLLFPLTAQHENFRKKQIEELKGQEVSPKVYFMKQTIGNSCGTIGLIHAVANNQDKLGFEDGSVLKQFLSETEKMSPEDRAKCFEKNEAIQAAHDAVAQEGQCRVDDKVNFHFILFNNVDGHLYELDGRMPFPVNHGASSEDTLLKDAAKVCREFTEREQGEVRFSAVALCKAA

| Compound | tested on | test | system | conditions | how to read | endpoint | value |
| --- | --- | --- | --- | --- | --- | --- | --- |
| OC(CCN1CCCCC1)(c1ccccc1)C1CC2C=CC1C2 (stereo not shown) |  | resting-state EEG | healthy elderly humans | oral, 4 mg, eyes open, LS mean | reference: baseline | change in EEG Beta3-power Fz-Cz | 10.1% |
| COc1cc(/C=C/C(=O)N2CCC=CC2=O)cc(OC)c1OC | Toxoplasma gondii | parasite growth | HFF, bradyzoite, glutamine-induced |  |  | EC50 | 3.36 µM |
| CCCCNC(=O)C(C#N)=Cc1cccc(Cl)c1Cl | UCHL1 | covalent, intact protein LC-MS |  | 12.5 µM |  | labelling | 32.7% |
| Cn1cc(-c2ccc(-c3cncc(Cl)c3N3CCC4(CCNC4=O)CC3)cc2)cn1 | COLO 205 | gene expression, microarray, refers to: EMID1 mRNA |  | concentration not given, 6 h | reference: untreated cells | log2 fold change | -3.47 |
| O=C(Nc1ccncc1)c1cc([N+](=O)[O-])ccc1Cl | Toxoplasma gondii | bradyzoite growth |  | pH 8.2, alkaline-induced bradyzoites |  | EC50 | 0.64 µM |
| COc1cc(C#CC(O)CC(C)C)ccc1O (stereo not shown) | Pseudomonas aeruginosa | static biofilm | PA14 | 10 µM, 24 h | reference: DMSO | biofilm formation | 75% |
| OC[C@H]1O[C@@H]2O[C@H]3[C@H](O)[C@@H](O)[C@@H](O[C@H]4[C@H](O)[C@@H](O)[C@@H](O[C@H]5[C@H](O)[C@@H](O)[C@@H](O[C@H]6[C@H](O)[C@@H](O)[C@@H](O[C@H]7[C@H](O)[C@@H](O)[C@@H](O[C@H]8[C@H](O)[C@@H](O)[C@@H](O[C@H]1[C@H](O)[C@H]2O)O[C@@H]8CO)O[C@@H]7CO)O[C@@H]6CO)O[C@@H]5CO)O[C@@H]4CO)O[C@@H]3CO | LuxR | Escherichia coli sensor |  | 200 µM | higher = stronger induction | bioluminescence induction | 885 ± 26 RLU |
| COc1cc(C#CC(O)c2ccccc2)ccc1O (stereo not shown) | Pseudomonas aeruginosa | static biofilm | PA14 | 10 µM, 24 h, static | reference: DMSO | biofilm formation | 51% |
| CCC(=O)Nc1ccc(C(=O)CCl)cc1 | UCHL1 | covalent, intact protein LC-MS |  | 12.5 µM |  | labelling | 8.95% |
| CN(C)CCNc1ccc(-c2nn(C)c(=O)c3ccccc23)cc1[N+](=O)[O-] | Trypanosoma cruzi | reporter translation, Renilla luciferase mRNA translation | cell-free extract | 40 µM | reference: DMSO | inhibition | 7.6% |
| Cc1ccc(S(=O)(=O)/C=C/C#N)cc1 | Toxoplasma gondii | parasite growth, luciferase reporter | HFF, tachyzoite | 72 h |  | EC50 | 13.8 µM |
| NC(=O)c1cnc2[nH]ccc2c1N[C@@H]1[C@@H]2CC3C[C@H]1C[C@@](O)(C3)C2 |  | flow cytometry, refers to: CD4+ memory T cells | Japanese healthy subjects, peripheral blood | oral, 10 mg twice daily, day 7 |  | change from baseline | 0.95% |
| COc1ccccc1C(=O)C#Cc1ccc(F)c(F)c1 | Pseudomonas aeruginosa | static biofilm | PA14 | 10 µM, 24 h, static | reference: DMSO | biofilm formation | 78% |
| O=C(O)CNC(=O)Cc1ccccc1 |  |  | ventricular cardiomyocytes, C57BL/6 mouse | dose not given, 0.496 s |  | sarcomere length | 1.64 µm |
| Nc1nc(-c2ccccc2)nc2[nH]nc(Nc3ccc(C(F)(F)F)cc3)c12 | coxsackievirus B3 |  | 31-1-93, NMRI mice, CVB3 chronic myocarditis | oral, 100 mg/kg twice daily, day 14, dosed days 1 to 7, score scale 0 to 7 | direction not given | clinical score | 0.11 |
| CC(C)NCC(O)c1ccc(O)c(O)c1 (stereo not shown) |  |  | ventricular cardiomyocytes, C57BL/6 mouse | dose not given, 0.784 s |  | sarcomere length | 1.7 µm |
| CCn1cc(-c2cc(Cn3ccnc3)cc3c2CCN([C@H](c2cc(OC)ccn2)C2CC2)C3=O)c(C(F)(F)F)n1 | NCI-H1792 | cell growth, inhibitor |  | 120 h |  | EC50 | 6.82 µM |

| Compound | tested on | test | system | conditions | how to read | endpoint | value |
| --- | --- | --- | --- | --- | --- | --- | --- |
| Oc1ccccc1-c1n[nH]cc1-c1ccnc2ccccc12 | BUB1 (Candida albicans) | kinase binding, MIB/MS competition | Candida albicans lysate | 1 µM | reference: DMSO | log2 fold change | 0.07 |
| C[C@H](Oc1ccc(Br)cc1-c1ccon1)C(=O)O |  | muscle velocity recovery cycles | human, tibialis anterior muscle | 400 mg twice daily, multiple doses, frequency ramp, first response at 15 Hz | reference: placebo | latency change | 0.505% |
| COc1cccc(C(=O)C#Cc2ccc(O)c(OC)c2)c1 | Pseudomonas aeruginosa | RT-qPCR, refers to: phzC1 | biofilm cells | 10 µM, 24 h | reference: untreated | mRNA level | 60% |
| C[n+]1cc2c3c(ccc2c2ccc4cc5c(cc4c21)OCO5)OCO3 | Toxoplasma gondii | parasite growth | HFF, bradyzoite, alkaline-induced |  |  | EC90 | 1.6 µM |
| O=C(C#Cc1ccc(F)c(F)c1)c1ccccc1 | Pseudomonas aeruginosa | static biofilm | PA14 | 10 µM, 24 h, static | reference: DMSO | biofilm formation | 77% |
| c1coc(-c2n[nH]cc2-c2ccnc3ccccc23)c1 | CMK1 (Candida albicans) | kinase binding, MIB/MS competition | Candida albicans lysate | 1 µM | reference: DMSO | log2 fold change | -0.25 |
| OC(Cn1cncn1)(Cn1cncn1)c1ccc(F)cc1F | Nakaseomyces glabratus |  | CG4, azole-susceptible, RPMI 1640 | 24 h, 35 °C |  | MIC | 3.12 µM (≈ 0.957 µg/mL) |
| C=C1C(=O)O[C@H]2[C@H]1CC/C(C)=C/CC[C@@]1(C)O[C@@H]21 | Toxoplasma gondii | parasite growth | HFF, bradyzoite, glutamine-induced |  |  | EC50 | 5.92 µM |
| O=C(/C=C/C=C/C=C/C1CCCCC1)NC1=C[C@@](O)(/C=C/C=C/C=C/C(=O)NC2=C(O)CCC2=O)[C@@H]2O[C@@H]2C1=O | hcc1833 | cell growth, inhibitor, CellTiter-Glo luminescence |  | 78 h | reference: day 0 cell count | GI50 | 19.6 µM |
| O=C1C(O)=C([C@H]2CC[C@H](c3ccc(Cl)cc3)CC2)C(=O)c2ccccc21 | Toxoplasma gondii | bradyzoite growth |  | glutamine-induced bradyzoites, glucose-free medium |  | EC50 | 0.06 µM |
| COc1cnc2cccc(N3CCc4c(cc(Cn5ccnc5C)cc4-c4cn(C)nc4C(F)(F)F)C3=O)c2c1 | SBC-5 | cell growth, inhibitor |  | 120 h |  | EC50 | 2.35 µM |
| COc1cc(C#CC(=O)c2ccccc2OC)ccc1O | Pseudomonas aeruginosa | RT-qPCR, refers to: phzC1 | biofilm cells | 10 µM, 24 h | reference: untreated | mRNA level | 46% |
| O=c1[nH]cc(F)c(=O)[nH]1 | Toxoplasma gondii | parasite growth, luciferase reporter | HFF, tachyzoite | 72 h |  | EC50 | 0.677 µM |
| COc1cc(-c2[nH]nnc2C(=O)c2ccccc2)ccc1O | Pseudomonas aeruginosa | static biofilm | PA14 | 10 µM, 24 h | reference: DMSO | biofilm formation | 70% |
| C[C@H]1C[C@H]2CSC(N)=N[C@@]2(c2nc(NC(=O)c3ccc(OC(F)F)cn3)cs2)CO1 |  | refers to: Aβ1-40 | healthy adults, plasma | 12 mg single dose, 8 h post-dose | reference: placebo | percent change from baseline | -67% |
| O=C(C#Cc1ccc(F)c(F)c1)c1cccc(Cl)c1 | Pseudomonas aeruginosa | RT-qPCR, refers to: rhlA | biofilm cells | 10 µM, 24 h | reference: untreated | mRNA level | 51% |
| O=C(c1ccc(Nc2nccc(-c3cc4ccccc4s3)n2)cc1)N1CCC(N2CCCC2)CC1 | Toxoplasma gondii | parasite growth | HFF, bradyzoite, alkaline-induced |  |  | EC90 | 12.2 µM |

For quick reference, copied from above:
| Compound | tested on | test | system | conditions | how to read | endpoint | value |
| --- | --- | --- | --- | --- | --- | --- | --- |
| C[C@H]1C[C@H]2CSC(N)=N[C@@]2(c2nc(NC(=O)c3ccc(OC(F)F)cn3)cs2)CO1 |  | refers to: Aβ1-40 | healthy adults, plasma | 12 mg single dose, 8 h post-dose | reference: placebo | percent change from baseline | -67% |
| CC(C)NCC(O)c1ccc(O)c(O)c1 (stereo not shown) |  |  | ventricular cardiomyocytes, C57BL/6 mouse | dose not given, 0.784 s |  | sarcomere length | 1.7 µm |
| Cn1cc(-c2ccc(-c3cncc(Cl)c3N3CCC4(CCNC4=O)CC3)cc2)cn1 | COLO 205 | gene expression, microarray, refers to: EMID1 mRNA |  | concentration not given, 6 h | reference: untreated cells | log2 fold change | -3.47 |
| COc1ccccc1C(=O)C#Cc1ccc(F)c(F)c1 | Pseudomonas aeruginosa | static biofilm | PA14 | 10 µM, 24 h, static | reference: DMSO | biofilm formation | 78% |
